Measured values gathered from unrelated publications.
Each numbered part is a random draw from the data of one study; scales do not carry over between parts.

Set 1 — method: RNAcompete; molecule type: RNA; sample: in vitro; tested at: 20 nM; notes: 7-mer, probes averaged, single round; relative to: mean of 7-mers; reading: higher = stronger binding
Target: PABPC1L2, full length, GST fusion (mouse, UniProt A0ABA7IW68)
`GAACGUU` has a 7-mer Z-score of -0.271.
For `UUUGCAC`, the 7-mer Z-score was -0.345.
`GUCUCCC` has a 7-mer Z-score of -0.367.
`GGAAGUG` gave a 7-mer Z-score of 0.0497.
`UUACGGG` has a 7-mer Z-score of 0.0551.
`CCGAGUA` has a 7-mer Z-score of 0.0207.

Set 2 — method: protein-binding microarray; molecule type: double-stranded DNA, one strand shown; sample: in vitro; tested at: 2200 nM top; notes: 60-bp whole probe; added: salmon DNA 0.4 mg/ml; relative to: random background probes; reading: higher = stronger binding; shared flanks, not repeated: GCCTAGCAC … GTCTTGATTCGCTTGACGCTGCTG
Target: Interferon regulatory factor 7, full length, phosphomimetic (IRF7, Homo sapiens, UniProt Q92985, residues 1-503, S471D/S472D/S475D/S476D/S477D/S483D/S484D/S487D)
Construct (chain): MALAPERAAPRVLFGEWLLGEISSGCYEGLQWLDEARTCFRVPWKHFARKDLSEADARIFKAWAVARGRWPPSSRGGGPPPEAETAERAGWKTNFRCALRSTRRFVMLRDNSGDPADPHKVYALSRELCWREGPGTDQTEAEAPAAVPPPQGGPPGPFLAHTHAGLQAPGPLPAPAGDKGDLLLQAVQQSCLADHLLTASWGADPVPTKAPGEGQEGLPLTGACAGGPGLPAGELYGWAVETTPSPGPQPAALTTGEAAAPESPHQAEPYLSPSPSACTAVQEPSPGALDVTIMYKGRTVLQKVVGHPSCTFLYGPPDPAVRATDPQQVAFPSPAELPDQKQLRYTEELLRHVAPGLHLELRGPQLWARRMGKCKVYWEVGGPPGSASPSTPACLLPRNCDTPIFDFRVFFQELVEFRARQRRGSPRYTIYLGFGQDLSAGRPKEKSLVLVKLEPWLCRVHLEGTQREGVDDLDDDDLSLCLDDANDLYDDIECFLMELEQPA
`GACTGTATCGGTTTCGGGACGTGCTAG` — result for “fitted relative affinity”: 3.75 z-score.
`TATGGTATTTTTTTGTAATCGTGCTAG` — result for “fitted relative affinity”: 0.974 z-score.
For `GACGGACTGGGTCGCGGGACGTGCTAG`, “fitted relative affinity” read -0.885 z-score.
`GCCGGTCTCCTTTTCCTGACGTGCTAG` — result for “fitted relative affinity”: 1.33 z-score.
Under “fitted relative affinity”, `AACTCTTTGCAGATAAATACGTGCTAG` is recorded as 0.26 z-score.
Under “fitted relative affinity”, `GACGGTTTCGGGACTGAGGACGTGCTA` is recorded as 3.33 z-score.

Set 3 — method: protein binding microarray; molecule type: double-stranded DNA, one strand shown; sample: in vitro; tested at: not given; relative to: not given; reading: higher = stronger binding
Target: Histone acetyltransferase KAT6A, winged helix 1, GST fusion (KAT6A, Homo sapiens, UniProt Q92794, residues 1-85)
Notes: 8-mer, flanks averaged, mean of 2 arrays, mostly near background
Residues (chain): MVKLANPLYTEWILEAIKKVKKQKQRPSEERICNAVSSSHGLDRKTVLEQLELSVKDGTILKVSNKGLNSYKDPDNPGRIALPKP
`CCTGCAGA` gave an E-score of -0.136.
The E-score of `CCCTTAAG` is reported as -0.106.
`CCTACTCC` has an E-score of -0.238.
For `GGAGACCA`, the E-score was -0.0776.
`AGTTTAGA` gave an E-score of -0.179.
For `GTCCAGTA`, the E-score was -0.149.

Other studies, line by line
With `PhoQ, residues 284 288 289 292 302 303 SSTMSV` the fold induction was 1.13 (PhoP, residues 12 14 15 18 19 HLGGL (Escherichia coli, UniProt P23836); Sort-seq, refers to: YFP reporter; E. coli; PhoQ-PhoP variant library, added: 10 µM Mg2+; relative to: high Mg2+ state, higher = stronger signaling).

A few entries again (set 3):
`CCTGCAGA` gave an E-score of -0.136.
The E-score of `CCCTTAAG` is reported as -0.106.
`CCTACTCC` has an E-score of -0.238.
